Measured values of several laboratories.
Every numbered part comes from another study and shows a few of its results, in no order.
Sequence of UniProt O00238 (whole entry, looked up): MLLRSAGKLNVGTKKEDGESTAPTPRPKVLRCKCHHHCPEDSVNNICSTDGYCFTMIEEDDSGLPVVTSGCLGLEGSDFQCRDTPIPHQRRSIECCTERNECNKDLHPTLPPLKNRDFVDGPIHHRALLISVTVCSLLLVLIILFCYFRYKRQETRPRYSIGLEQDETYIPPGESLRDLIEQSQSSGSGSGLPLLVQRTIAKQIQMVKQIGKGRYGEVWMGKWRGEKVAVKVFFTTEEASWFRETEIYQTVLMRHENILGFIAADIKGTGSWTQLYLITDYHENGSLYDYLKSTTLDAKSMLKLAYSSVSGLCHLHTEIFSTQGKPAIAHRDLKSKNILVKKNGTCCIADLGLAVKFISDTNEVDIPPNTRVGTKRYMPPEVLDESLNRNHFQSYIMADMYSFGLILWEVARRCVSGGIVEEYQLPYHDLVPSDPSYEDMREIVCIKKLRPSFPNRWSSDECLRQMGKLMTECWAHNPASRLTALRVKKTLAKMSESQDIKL
Sequence of UniProt O43781 (whole entry, looked up): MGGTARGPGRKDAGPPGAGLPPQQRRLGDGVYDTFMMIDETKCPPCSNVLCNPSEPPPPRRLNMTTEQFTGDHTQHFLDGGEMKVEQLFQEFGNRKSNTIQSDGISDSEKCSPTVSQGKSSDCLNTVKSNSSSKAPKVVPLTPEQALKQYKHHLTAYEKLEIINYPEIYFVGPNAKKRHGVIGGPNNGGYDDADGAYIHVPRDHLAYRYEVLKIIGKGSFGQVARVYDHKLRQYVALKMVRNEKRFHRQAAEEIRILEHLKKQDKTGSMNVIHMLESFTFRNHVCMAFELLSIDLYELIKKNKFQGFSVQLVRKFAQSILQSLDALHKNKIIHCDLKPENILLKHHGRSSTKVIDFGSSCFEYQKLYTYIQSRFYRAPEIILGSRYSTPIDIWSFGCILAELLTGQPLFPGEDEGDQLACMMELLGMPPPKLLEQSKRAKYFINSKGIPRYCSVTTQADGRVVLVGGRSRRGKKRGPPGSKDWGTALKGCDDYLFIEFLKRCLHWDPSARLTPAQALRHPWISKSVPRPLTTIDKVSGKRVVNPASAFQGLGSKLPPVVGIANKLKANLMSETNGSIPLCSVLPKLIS
Sequence of UniProt Q8NE63 (whole entry, looked up): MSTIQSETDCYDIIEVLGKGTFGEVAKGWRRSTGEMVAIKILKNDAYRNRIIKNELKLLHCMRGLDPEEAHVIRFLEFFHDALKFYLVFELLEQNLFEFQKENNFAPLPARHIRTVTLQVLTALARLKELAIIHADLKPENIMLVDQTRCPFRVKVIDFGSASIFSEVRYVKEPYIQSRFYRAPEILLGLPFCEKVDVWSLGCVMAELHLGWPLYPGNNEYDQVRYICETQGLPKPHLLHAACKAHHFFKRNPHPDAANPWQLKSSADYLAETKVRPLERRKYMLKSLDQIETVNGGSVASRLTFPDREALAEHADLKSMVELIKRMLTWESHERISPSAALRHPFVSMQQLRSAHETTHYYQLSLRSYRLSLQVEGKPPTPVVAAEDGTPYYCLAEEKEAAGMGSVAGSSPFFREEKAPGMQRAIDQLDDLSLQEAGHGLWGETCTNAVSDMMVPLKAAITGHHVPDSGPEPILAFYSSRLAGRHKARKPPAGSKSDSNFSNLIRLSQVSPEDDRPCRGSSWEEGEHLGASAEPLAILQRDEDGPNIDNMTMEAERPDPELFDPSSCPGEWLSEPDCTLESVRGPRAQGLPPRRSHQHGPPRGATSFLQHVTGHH
Sequence of UniProt P42336 (whole entry, unmodified, looked up): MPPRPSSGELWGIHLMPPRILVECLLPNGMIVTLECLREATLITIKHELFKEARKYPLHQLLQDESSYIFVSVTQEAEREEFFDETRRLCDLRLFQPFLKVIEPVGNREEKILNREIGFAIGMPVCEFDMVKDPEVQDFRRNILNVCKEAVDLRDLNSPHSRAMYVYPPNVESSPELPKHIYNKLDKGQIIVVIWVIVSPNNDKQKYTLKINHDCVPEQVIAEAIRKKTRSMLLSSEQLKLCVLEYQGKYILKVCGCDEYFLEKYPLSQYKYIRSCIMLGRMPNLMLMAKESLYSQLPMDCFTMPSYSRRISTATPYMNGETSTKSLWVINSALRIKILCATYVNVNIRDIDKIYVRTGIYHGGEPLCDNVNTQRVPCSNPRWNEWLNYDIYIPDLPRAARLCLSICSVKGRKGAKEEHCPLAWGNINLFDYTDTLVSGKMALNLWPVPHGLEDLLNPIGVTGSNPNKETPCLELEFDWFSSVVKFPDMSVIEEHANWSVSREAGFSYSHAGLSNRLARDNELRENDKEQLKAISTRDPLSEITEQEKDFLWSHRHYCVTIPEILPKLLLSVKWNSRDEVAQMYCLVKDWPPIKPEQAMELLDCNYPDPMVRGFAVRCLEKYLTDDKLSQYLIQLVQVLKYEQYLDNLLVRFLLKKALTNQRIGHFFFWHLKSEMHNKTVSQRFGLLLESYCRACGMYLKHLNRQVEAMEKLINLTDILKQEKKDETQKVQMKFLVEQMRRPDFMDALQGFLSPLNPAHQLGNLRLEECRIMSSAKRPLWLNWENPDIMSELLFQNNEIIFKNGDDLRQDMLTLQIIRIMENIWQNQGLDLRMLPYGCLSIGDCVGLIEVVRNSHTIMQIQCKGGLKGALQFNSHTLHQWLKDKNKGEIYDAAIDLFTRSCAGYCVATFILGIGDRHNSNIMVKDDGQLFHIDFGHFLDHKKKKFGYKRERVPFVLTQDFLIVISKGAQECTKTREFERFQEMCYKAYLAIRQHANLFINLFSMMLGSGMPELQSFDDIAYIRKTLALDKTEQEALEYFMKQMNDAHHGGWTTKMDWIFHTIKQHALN
Sequence of UniProt P54760 (whole entry, looked up): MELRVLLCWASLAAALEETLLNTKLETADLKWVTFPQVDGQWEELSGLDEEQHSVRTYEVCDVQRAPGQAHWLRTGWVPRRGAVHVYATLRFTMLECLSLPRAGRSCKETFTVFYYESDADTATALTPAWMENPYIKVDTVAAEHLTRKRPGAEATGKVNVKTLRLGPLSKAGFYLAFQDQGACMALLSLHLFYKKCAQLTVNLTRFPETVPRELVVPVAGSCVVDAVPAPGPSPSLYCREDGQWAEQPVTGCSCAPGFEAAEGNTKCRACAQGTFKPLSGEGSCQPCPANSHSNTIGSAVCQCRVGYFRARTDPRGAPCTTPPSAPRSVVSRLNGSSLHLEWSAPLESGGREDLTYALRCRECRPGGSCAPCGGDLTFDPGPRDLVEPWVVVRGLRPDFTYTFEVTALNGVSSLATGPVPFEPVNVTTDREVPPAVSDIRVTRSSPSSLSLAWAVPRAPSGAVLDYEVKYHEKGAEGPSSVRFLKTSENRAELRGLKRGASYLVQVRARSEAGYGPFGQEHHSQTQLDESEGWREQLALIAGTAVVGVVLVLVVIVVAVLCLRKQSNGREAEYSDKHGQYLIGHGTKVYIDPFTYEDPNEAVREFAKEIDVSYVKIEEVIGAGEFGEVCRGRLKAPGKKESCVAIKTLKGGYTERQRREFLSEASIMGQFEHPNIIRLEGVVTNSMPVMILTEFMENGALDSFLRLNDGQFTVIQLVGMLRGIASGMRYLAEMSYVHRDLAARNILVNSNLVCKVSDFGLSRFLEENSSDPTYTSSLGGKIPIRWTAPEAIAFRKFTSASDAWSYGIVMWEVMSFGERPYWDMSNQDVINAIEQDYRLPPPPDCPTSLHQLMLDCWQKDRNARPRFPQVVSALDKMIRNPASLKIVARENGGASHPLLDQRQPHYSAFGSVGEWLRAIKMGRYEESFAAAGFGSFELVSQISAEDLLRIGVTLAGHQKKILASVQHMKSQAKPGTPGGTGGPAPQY
Sequence of UniProt P11802 (whole entry, looked up): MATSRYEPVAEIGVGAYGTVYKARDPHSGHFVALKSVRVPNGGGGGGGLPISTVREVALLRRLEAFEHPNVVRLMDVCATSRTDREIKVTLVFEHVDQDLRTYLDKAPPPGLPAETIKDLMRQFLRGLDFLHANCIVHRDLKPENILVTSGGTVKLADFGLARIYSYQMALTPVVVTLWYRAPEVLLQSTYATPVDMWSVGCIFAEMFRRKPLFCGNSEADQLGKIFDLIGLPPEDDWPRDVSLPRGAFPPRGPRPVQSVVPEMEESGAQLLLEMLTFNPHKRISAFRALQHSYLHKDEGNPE
Sequence of UniProt P19525 (whole entry, looked up): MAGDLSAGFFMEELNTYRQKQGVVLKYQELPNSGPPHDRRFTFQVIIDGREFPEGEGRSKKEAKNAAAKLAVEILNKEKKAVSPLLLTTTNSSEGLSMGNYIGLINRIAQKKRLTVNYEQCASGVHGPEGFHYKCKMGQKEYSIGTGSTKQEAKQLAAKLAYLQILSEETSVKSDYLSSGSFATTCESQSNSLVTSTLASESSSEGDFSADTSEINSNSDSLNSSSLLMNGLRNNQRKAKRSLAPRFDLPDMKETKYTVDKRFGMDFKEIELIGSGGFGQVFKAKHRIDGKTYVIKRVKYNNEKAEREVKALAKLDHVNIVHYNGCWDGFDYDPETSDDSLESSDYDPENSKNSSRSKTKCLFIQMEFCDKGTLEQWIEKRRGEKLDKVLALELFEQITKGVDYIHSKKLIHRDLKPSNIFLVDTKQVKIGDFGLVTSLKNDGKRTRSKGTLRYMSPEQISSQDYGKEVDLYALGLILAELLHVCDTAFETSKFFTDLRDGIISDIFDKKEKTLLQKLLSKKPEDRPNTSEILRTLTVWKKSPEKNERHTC

Block 1
SMILES: CC(C)(C)c1nc2c3cc[nH]c(=O)c3c3cc(F)ccc3c2[nH]1
Observed: enzyme activity
Action: inhibitor
Concentration: 0.5 µM
Reference: control
Endpoint: remaining activity
RPS6KA6 (Homo sapiens, UniProt Q9UK32): 33.9%
MAPKAPK3 (Homo sapiens, UniProt Q16644): 94.4%
DYRK3 (Homo sapiens, UniProt O43781): 105%
EPHB4 (Homo sapiens, UniProt P54760): 88.2%
Cyclin-dependent kinase 6, with cyclin D3 (CDK6, Homo sapiens, UniProt Q00534): 87.8%
STK17A (Homo sapiens, UniProt Q9UEE5): 6.42%
Cyclin-dependent kinase 4, with cyclin D3 (CDK4, Homo sapiens, UniProt P11802): 95.2%
CAMK2B (Homo sapiens, UniProt Q13554): 73.4%
HIPK2 (Homo sapiens, UniProt Q9H2X6): 98.7%
PHKG1 (Homo sapiens, UniProt Q16816): 34.5%
HIPK4 (Homo sapiens, UniProt Q8NE63): 107%

Block 2
Target: Histone acetyltransferase KAT6A, winged helix 1, GST fusion (KAT6A, Homo sapiens, UniProt Q92794, residues 1-85)
Method: protein binding microarray
Form: double-stranded DNA, one strand shown
Medium: in vitro
Concentration: not given
Notes: 8-mer, flanks averaged, mean of 2 arrays, mostly near background
Reference: not given
Direction: higher = stronger binding
Endpoint: E-score
Residues (chain): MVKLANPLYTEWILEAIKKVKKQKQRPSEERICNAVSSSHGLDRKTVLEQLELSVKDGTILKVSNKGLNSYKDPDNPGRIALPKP
GGCTTAGA: -0.0335
ACATCATC: -0.0351
GCCGAGGC: 0.241
AACGCCCA: -0.102
AACTCCGG: 0.0951
CCGAACCG: 0.267
CGCGGTGA: 0.325
CACCCGGC: 0.359

Block 3
Structure (SMILES): O=C(N1CCS(=O)(=O)CC1)N1C[C@H](c2ccc(OC(F)(F)F)cc2)C[C@H](c2nc(C3CC3)no2)C1
Observed: cell-free assay
Method: competition with immobilised ligand
Concentration: 1 µM
Endpoint: remaining binding
EPHB6 (Homo sapiens, UniProt O15197): 100%
MAPK13 (Homo sapiens, UniProt O15264): 100%
FES (Homo sapiens, UniProt P07332): 100%
FGFR2 (Homo sapiens, UniProt P21802): 94%
PIK3CA (Homo sapiens, UniProt P42336, H1047L): 100%
MAPK1 (Homo sapiens, UniProt P28482): 95%
MAPKAPK2 (Homo sapiens, UniProt P49137): 100%
EGFR (Homo sapiens, UniProt P00533, del747-750/T751S): 77%
ALK (Homo sapiens, UniProt Q9UM73): 100%
EIF2AK2 (Homo sapiens, UniProt P19525): 100%
BMPR1B (Homo sapiens, UniProt O00238): 82%
EGFR (Homo sapiens, UniProt P00533, A750P/del747-749): 100%
ERBB3 (Homo sapiens, UniProt P21860): 100%

Block 4
Target: RING finger protein unkempt homolog, zinc fingers 1-6, GST-SBP tag (UNK, Homo sapiens, UniProt Q9C0B0, residues 30-357)
Sequence of UniProt Q9C0B0 (30-357, looked up): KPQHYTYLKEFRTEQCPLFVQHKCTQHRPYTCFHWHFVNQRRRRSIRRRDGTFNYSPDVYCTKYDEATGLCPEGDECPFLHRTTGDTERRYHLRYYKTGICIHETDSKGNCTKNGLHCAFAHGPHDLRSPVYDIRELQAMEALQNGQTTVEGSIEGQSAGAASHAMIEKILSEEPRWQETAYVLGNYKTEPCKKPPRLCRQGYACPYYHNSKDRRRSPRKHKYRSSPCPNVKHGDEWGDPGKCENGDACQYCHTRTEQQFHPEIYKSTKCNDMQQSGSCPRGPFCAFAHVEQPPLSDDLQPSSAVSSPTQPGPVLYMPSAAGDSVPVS
Method: RNA Bind-n-Seq
Form: RNA
Medium: in vitro
Concentration: not given
Notes: RNA with constant flanks, human and mouse sites, ends assumed
Reference: input RNA pool
Direction: higher = stronger binding
Endpoint: bound/input enrichment
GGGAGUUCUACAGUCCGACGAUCUAUGAGAAGGAUGCACUGAGCAUAAGGAAGGUCGGAGAGGAGGAGUGUGUGGCUCUAGGCAGUUUCUUUUUCUGGAAGUGUUUGCAUGGAGAAAGCUCCACUGAAGAGAUGUGCCACAGCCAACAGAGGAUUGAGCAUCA: 0.242 ratio
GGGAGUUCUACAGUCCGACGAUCAUUAUGAAAACAAAGAAGUGGGCAGUAGAGCGAACACGAACCAUCCAAGGACUCAUUGACUUCAUCAAAAAGUUUCUUAAACUUGUGGCCUCAGAACAGUUGUUUAUUUAUGUGAAUCAGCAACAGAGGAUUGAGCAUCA: 0.198 ratio
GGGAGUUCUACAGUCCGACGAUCGCUGAAGGAAAUGACCAACCACCAGAAGAAACGAGCAGCUGAAAUGAUGGCAUCAUUAUUAAAAGACCUUGCAGAAAUAGGAAUUGCUGUGGGGAAUAACGAUGUGAAGCAACCAGAAGGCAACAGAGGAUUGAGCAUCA: 0.268 ratio
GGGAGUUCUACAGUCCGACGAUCUCAUUGCCCUCAACAUGAAGACUGCCAUAUUCCAAGUCACAUUAUUUUACCAAUGGAAUUAUAGAAUUAACAGUAUUUUAAAUUACGUUUAUAACACUGCAGAGACCUUAAGUGCUAAACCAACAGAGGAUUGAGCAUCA: 1.47 ratio
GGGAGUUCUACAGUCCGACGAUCGACCUCAUUGUGGCAGAUAGCAGCCGCAAGGAAAUUCUCCAUUUUCCCAAGGGCGGUGGCUACAGCGUCCUUAUUCGAGAGGGCCUUACCUGUCCAGUGGGCAUCGCCCUCACACCCAAGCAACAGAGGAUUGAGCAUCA: 0.123 ratio
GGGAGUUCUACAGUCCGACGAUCAUGCAGUGGCUCGGGAGGCACACAGAUCCUGAAGGAAUCAUAAAAUCCAGCAAGCUCUCCCUUCAGUUUGUUUCCUCCUACACAUCUGAAGCGGAGAUCACCCCGUCUUCCAUGCCUGUGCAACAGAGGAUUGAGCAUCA: 0.227 ratio
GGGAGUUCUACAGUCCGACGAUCUUGAAUGGUUUGGAAUAUGUGCCACAAAGACUGAAAAAUCUUAAUGAAAUUAAUAAGCUGCUAGCACAUCGACCUUGGCUGAUCACAAAAGAGCACAUUCAGAAACUUGUCAAAACUGGACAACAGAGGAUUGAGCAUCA: 0.3 ratio
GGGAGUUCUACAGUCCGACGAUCUGUGUUAAUCCAGAAAUGCAAUAUGUGAAAAUUAAAGAUGUUGCCAGAGGACGAUUACUCAUUUUAAUGGAAGCCAGAUUGUCAGCCCUCUAUAAAUUGGAGAGUGACUAUGAGAUCCUUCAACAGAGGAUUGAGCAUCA: 0.15 ratio
